Assay results of several laboratories.
Every numbered part comes from another study and shows a few of its results, in no order. “And” joins repeats or separate records; there may be more than shown.
Sequence of UniProt Q96SW2 (whole entry, looked up): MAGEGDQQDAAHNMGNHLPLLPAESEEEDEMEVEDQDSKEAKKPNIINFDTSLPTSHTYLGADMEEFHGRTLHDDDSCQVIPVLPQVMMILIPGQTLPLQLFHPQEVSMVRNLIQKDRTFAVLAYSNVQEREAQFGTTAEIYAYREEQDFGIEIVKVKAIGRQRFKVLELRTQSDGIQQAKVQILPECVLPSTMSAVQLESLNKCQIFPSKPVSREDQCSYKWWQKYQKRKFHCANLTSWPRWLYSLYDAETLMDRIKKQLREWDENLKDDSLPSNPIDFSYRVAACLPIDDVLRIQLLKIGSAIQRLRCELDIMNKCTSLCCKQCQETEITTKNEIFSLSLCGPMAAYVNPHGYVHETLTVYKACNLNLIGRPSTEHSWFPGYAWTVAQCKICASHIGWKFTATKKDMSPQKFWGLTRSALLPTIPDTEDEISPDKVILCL
Sequence of UniProt Q99640 (whole entry, looked up): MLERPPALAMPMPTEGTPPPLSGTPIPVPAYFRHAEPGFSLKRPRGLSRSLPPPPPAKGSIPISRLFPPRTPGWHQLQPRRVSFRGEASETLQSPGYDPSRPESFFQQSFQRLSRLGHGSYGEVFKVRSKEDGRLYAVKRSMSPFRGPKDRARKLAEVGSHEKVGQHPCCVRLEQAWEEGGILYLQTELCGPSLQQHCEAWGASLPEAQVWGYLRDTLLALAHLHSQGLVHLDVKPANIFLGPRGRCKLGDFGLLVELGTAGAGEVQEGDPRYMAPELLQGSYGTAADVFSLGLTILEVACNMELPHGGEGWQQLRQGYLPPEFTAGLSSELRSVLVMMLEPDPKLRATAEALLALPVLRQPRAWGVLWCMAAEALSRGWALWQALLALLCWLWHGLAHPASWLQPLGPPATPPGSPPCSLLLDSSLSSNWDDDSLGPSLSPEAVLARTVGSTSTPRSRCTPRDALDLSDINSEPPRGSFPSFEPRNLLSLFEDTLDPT

Study 1
Cell line: L444P/L444P Gaucher fibroblasts
Technique: 4-MUG hydrolysis in lysate
Tested at: 1 µM
Time: 72 h
Relative to: vehicle
For `Ic1cccc(Nc2nc(NCCN3CCOCC3)nc(N3CCOCC3)n2)c1`, the enzyme activity was 110%.
For `Ic1ccc(Nc2nc(NCCN3CCOCC3)nc(NC3CCCCC3)n2)cc1`, the enzyme activity was 95%.
With `Ic1ccc(Nc2nc(NCCN3CCCCC3)nc(N3CCOCC3)n2)cc1` the enzyme activity was 111%.
For `COc1ccc(Nc2nc(NCCN3CCOCC3)nc(N3CCOCC3)n2)cc1`, the enzyme activity was 98%.
The enzyme activity of `CCOc1ccc2nc(Sc3nc(Nc4ccc(I)cc4)nc(N4CCOCC4)n3)sc2c1` is reported as 112% and 114% and 116% and 110% and 122%.
`CCN(CC)c1nc(NCCN2CCOCC2)nc(Nc2ccc(I)cc2)n1` gave an enzyme activity of 94%.
The enzyme activity of `Cc1ccc(Nc2nc(NCCN3CCOCC3)nc(N3CCOCC3)n2)cc1` is reported as 108%.
With `Ic1ccc(Nc2nc(NCCc3c[nH]c4ccccc34)nc(N3CCOCC3)n2)cc1` the enzyme activity was 196% and 177% and 173% and 174% and 186%.
The enzyme activity of `Ic1ccc(Nc2nc(NCCN3CCOCC3)nc(N3CCCCC3)n2)cc1` is reported as 100%.
The enzyme activity of `Ic1ccc(Nc2nc(NCCc3c[nH]c4ccccc34)nc(NCCN3CCOCC3)n2)cc1` is reported as 94%.
For `Ic1ccc(Nc2nc(NCCN3CCOCC3)nc(N3CCCC3)n2)cc1`, the enzyme activity was 98%.
For `CCOc1ccc2nc(Sc3nc(N4CCOCC4)nc(N4CCOCC4)n3)sc2c1`, the enzyme activity was 102%.

Study 2
SMILES: CCN1/C(=C/C=C2\CCCC(/C=C/C3=[N+](CC)c4ccccc4C3(C)C)=C2NCCCCCCCCN2CCC(Nc3nc4ccccc4n3Cc3ccc(F)cc3)CC2)C(C)(C)c2ccccc21
Cell line: U-87 MG
Tested at: concentration not given
Relative to: DMSO
It gave 1.38 for “log2 fold change” (measured: GCC1 mRNA).
measured: PODXL mRNA — “log2 fold change”: -0.983.
The “log2 fold change” was -1.35 (measured: CBR3 mRNA).
For measured: CAMK2A mRNA: “log2 fold change” read -3.73.
It gave 1.31 for “log2 fold change” (measured: DNAJB2 mRNA).
measured: ABI1 mRNA — “log2 fold change”: 1.43.
The “log2 fold change” was -1.08 (measured: TANC1 mRNA).
The “log2 fold change” was -0.86 (measured: SALL1 mRNA).
For measured: BEND7 mRNA: “log2 fold change” read 2.12.
For measured: IL23A mRNA: “log2 fold change” read 3.23.
measured: NSD2 mRNA — “log2 fold change”: -0.942.
measured: RAB3IP mRNA — “log2 fold change”: 0.944.
For measured: MRAS mRNA: “log2 fold change” read 1.19.
measured: FZD2 mRNA — “log2 fold change”: -1.92.
The “log2 fold change” was -1.1 (measured: TRAIP mRNA).
For measured: TGFB2 mRNA: “log2 fold change” read -1.83.

Single results of other studies
With `Cc1ccc(O)c(C)c1-c1cnc2[nH]c(-c3cnc(N4CCC5(CC4)CC(N4CCN(c6ccc(N[C@H]7CCC(=O)N(C)C7=O)cc6F)CC4)CO5)nc3)cc2c1C#N` (single isomer, unassigned) the IC50 was 75.3 nM (HCC1569; automated immunoblotting, measured: CDK1 phospho-Thr14; 24 h).
`COCC1CC2C(CCC3(C)C(O)CCC23)c2ccc(O)cc21` (stereo not shown): “log2 expression ratio” 0 (A549; DNA microarray, measured: CCL11; concentration not given; relative to: untreated A549 cells).
The efflux ratio of `Cc1ncc(-c2cc3c(C#N)c(-c4c(C)ccc(O)c4C)cnc3[nH]2)cn1` is reported as 1.28 (Caco-2; 2 µM, 2 h, pH 7.4).
`COCC1CC2C(CCC3C(O)CCC32)c2ccc(O)cc21` (stereo not shown): “mRNA level ratio” 0.8 and 0.785 and 0.776 and 0.787 and 0.794 (A549; DNA microarray, measured: GAPDH; 100 µM; relative to: untreated cells).
For `Cc1ccc(O)c(C)c1-c1cnc2[nH]c(-c3cnc(N4CCC5(CC4)CC(N4CCN(c6ccc(N[C@H]7CCC(=O)NC7=O)cc6F)CC4)CO5)nc3)cc2c1C#N` (single isomer, unassigned), the binding was 68.7% and 71.1% (Protein cereblon (CRBN, Homo sapiens, UniProt Q96SW2); 30000 nM).
`Cc1ccc(O)c(C)c1-c1cnc2[nH]c(-c3cnc(N4CCC(CN5CCN(c6ccc(NC7CCC(=O)NC7=O)c(F)c6)CC5)CC4)nc3)cc2c1C#N` (racemic) gave an IC50 of 4.6 nM (PKMYT1 (Homo sapiens, UniProt Q99640); binding, HTRF).

Some of these lines once more (study 2):
For measured: MRAS mRNA: “log2 fold change” read 1.19.
measured: FZD2 mRNA — “log2 fold change”: -1.92.
The “log2 fold change” was -1.1 (measured: TRAIP mRNA).
